Experimental data of several laboratories.
Numbered parts are unrelated; each lists some results of a single study. Changes are numbered by the printed parent chain.

Series 1
Target: CCND1, cyclin fold, Cln2 fusion (human)
Technique: yeast growth competition, sequencing
Sample: yeast
Notes: strong parent motif
Relative to: not given
Direction: higher = stronger binding
Parent: PKN2 docking peptide (human); VSAVRKLDFSDTM
Change | normalised enrichment score
S10V | 3.57
K6S | 2.16
T12E | 5.4
D8Q | 3.45
L7F | 0.26
D8S | 5.1
T12M | 5.23
S2Q | 3.75
F9P | 0.0213
A3F | 0.713
R5W | 0.972
R5S | 0.721
R5T | 0.862
V4L | 0.82
T12A | 5.82
V4E | 0.943
A3P | 2.37
V4I | 6.31
D11K | 4.24
D8C | 3.02
F9L | 1.01
A3C | 4.11
S10Y | 3.6
D8P | 0.615
K6Y | 3.56

Series 2
Target: Interferon regulatory factor 7, full length, phosphomimetic (IRF7, Homo sapiens, UniProt Q92985, residues 1-503, S101K/S471D/S472D/S475D/S476D/S477D/S483D/S484D/S487D)
Technique: protein-binding microarray
Molecule type: double-stranded DNA, one strand shown
Sample: in vitro
Tested at: 250 nM
Notes: 60-bp whole probe
Together with: salmon DNA 0.4 mg/ml
Relative to: random background probes
Direction: higher = stronger binding
Shared flanks, not repeated: GCCTAGCAC … GTCTTGATTCGCTTGACGCTGCTG
Construct (chain): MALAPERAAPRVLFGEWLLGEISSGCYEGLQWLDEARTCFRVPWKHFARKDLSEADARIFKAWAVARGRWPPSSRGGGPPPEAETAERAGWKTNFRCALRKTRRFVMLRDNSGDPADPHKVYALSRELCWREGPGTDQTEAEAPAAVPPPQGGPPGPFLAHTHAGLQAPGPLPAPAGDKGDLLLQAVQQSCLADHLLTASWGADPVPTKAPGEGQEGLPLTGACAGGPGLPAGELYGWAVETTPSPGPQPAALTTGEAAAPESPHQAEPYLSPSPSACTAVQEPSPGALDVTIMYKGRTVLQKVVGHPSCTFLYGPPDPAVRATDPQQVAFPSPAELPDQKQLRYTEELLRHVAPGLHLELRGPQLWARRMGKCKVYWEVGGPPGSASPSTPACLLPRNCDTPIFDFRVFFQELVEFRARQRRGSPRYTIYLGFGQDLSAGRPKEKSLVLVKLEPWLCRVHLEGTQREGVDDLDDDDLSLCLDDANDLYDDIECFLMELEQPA
Oligonucleotide | log fluorescence [z-score]
TTAGGACTGCTTTTCCCTTAGTGCTAG | 1.41
TCATCTCTGAAGACTCTCACTGTGCTA | 0.379
TTAAGTATCCTTCTCCTTTAGTGCTAG | 0.874
TTAGGTCTCGGTTTCGGTTAGTGCTAG | 10.7
TTAGATTCCGGGACTGGATTAGTGCTA | 0.543
GACGGGATCGGTCTCGGGACGTGCTAG | -0.00626
GACGGTAACGGTTTCGGGACGTGCTAG | 3.45
TCAGCTTTGCCTTCAGCACTGTGCTAG | -0.615
GGACTGTCAGCCACTTTTTGGTGCTAG | -0.569
TCCTGTGTCTTAAATAGGGCAGTGCTA | -0.0154
TCAGTTCTGAGTCTTCCACTGTGCTAG | 0.108
AGACAGTTGAGTTCTGTTGCAGTGCTA | -0.566
TTAGGTGTCGGTCTCGGTTAGTGCTAG | 0.836
CTTAGTATTTTTTTCCAGAGGTGCTAG | 0.723
TTAGATTTCGGGACTGGAATAGTGCTA | 0.757
TTTCATTTTTTTTTTCATCAGTGCTAG | 2.04
TCAGATATAGGATAACGAACTGTGCTA | 0.279
GAAGCCCTCCCTGTGGGGGGGTGCTAG | 1.53
TTGTTTTACAATTTGCTTTAGTGCTAG | 1.82

Series 3
Target: ABI1, truncated, D143A, DHFR fusion (Arabidopsis thaliana, UniProt P49597)
Technique: DHFR PCA, dose-response
Sample: yeast
Notes: Hill fit, not affinity, not high confidence
Together with: (+)-ABA, dose series
Direction: lower = more sensitive
Parent: PYL1, truncated, DHFR fusion (Arabidopsis thaliana, UniProt Q8VZS8); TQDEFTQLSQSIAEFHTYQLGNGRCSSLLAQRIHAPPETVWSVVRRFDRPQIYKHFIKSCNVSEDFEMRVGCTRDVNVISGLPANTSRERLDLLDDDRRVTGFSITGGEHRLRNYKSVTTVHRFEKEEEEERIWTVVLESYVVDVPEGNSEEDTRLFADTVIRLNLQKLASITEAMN
Change | ABA EC50
T135D | 0.87 µM
E89I | 1.41 µM
G71V | 401 µM
I57D | 0.951 µM
G81N | 281 µM
N149V | 105 µM
I172P | 823 µM
L82W | 223 µM
T86P | 0.164 µM
L82K | 0.543 µM
F103G | 8.6 µM
S140D | 20.2 µM
L169R | 2.42 µM
H110F | 70.5 µM
N114V | 1450 µM
Y141K | 11.3 µM

Series 4
Target: Sal-like protein 4, full length isoform B (SALL4, Homo sapiens, UniProt Q9UJQ4-2, residues 1-616)
Technique: universal PBM
Molecule type: double-stranded DNA, one strand shown
Sample: in vitro
Tested at: not given
Notes: 8-mer, flanks averaged, mean of replicates
Direction: higher = stronger binding
Oligonucleotide | E-score
ACACACTG | -0.141
CCAGGGAC | -0.327
CTTCTCGA | -0.0118
GTCCCAAC | -0.0628
ACACCGTA | -0.0893
AACGCGCA | -0.0611
CCCACTCG | -0.228
GTCATCTA | 0.111
CGCGCAGA | -0.134
AAATGATG | 0.209
ACAGATTC | 0.131
CGCCTACG | -0.25
GAGTCCAA | -0.124
TAGAGTCA | -0.107
ACCCCTTA | -0.0112
CAGTCACG | -0.216
AAGCTTTA | 0.0243
CCTGAACG | -0.117
CATCTCAG | -0.0814
CGCGGGAA | -0.186
ACTAATGG | 0.113
AACAACCG | 0.014
CCGGTACG | -0.302
ACCCTTCG | -0.204
AAAACCAT | 0.266

Series 5
Target: ATF5, bZIP domain (human)
Technique: DHFR protein complementation
Sample: yeast
Notes: single substitutions, most at no-binding floor
Relative to: wild-type JUN-FOS pair
Direction: higher = stronger binding
Parent: JUN, bZIP domain (human); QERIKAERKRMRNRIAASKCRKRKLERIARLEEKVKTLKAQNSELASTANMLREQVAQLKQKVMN; partner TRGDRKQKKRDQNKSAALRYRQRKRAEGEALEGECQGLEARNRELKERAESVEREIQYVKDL
Change | binding fitness [natural log]
K36G | -1.51
E54A | -1.49
S47E | -1.36
N42T | -1.34
T37R | -1.52
Q55Y | -1.3
T48G | -1.5
Q41C | -1.49
N42P | -1.55
S43P | -1.5
E54S | -1.53
T48R | -1.46
S43V | -1.46
E33H | -1.32
K34L | -1.56
S43M | -1.28
R53A | -1.48
Q41M | -1.5
E54I | -1.52

For quick reference, copied from above (series 2):
Oligonucleotide | log fluorescence [z-score]
TTAGGTCTCGGTTTCGGTTAGTGCTAG | 10.7
TTAGATTCCGGGACTGGATTAGTGCTA | 0.543
GACGGGATCGGTCTCGGGACGTGCTAG | -0.00626
GACGGTAACGGTTTCGGGACGTGCTAG | 3.45
TCAGCTTTGCCTTCAGCACTGTGCTAG | -0.615
GGACTGTCAGCCACTTTTTGGTGCTAG | -0.569
TCCTGTGTCTTAAATAGGGCAGTGCTA | -0.0154
TCAGTTCTGAGTCTTCCACTGTGCTAG | 0.108
AGACAGTTGAGTTCTGTTGCAGTGCTA | -0.566
TTAGGTGTCGGTCTCGGTTAGTGCTAG | 0.836
CTTAGTATTTTTTTCCAGAGGTGCTAG | 0.723
TTAGATTTCGGGACTGGAATAGTGCTA | 0.757
TTTCATTTTTTTTTTCATCAGTGCTAG | 2.04
TCAGATATAGGATAACGAACTGTGCTA | 0.279
